{"data": "Measurements pooled from the literature", "organism": "Staphylococcus aureus", "note": "Compare with care: the assays were run in different laboratories."}
{"Molecule": "CCCCCOc1c(OC)cc(NC(C)CCCNC(=O)C(N)C(C)CC)c2nc(C(C)(C)C)ccc12 (stereo not drawn)", "assay": "microbial killing", "test system": "ATCC33591 MRSA", "setting": "drug-resistant strain", "quantity": "MBC", "result": "10 µg/mL"}
{"Molecule": "CC[C@H](C)[C@H](NC(=O)[C@H](C)NC(=O)[C@@H](NC(=O)[C@H](C)NC(=O)CN)[C@@H](C)O)C(=O)N[C@@H](CCCCN)C(=O)N[C@@H](CCC(N)=O)C(=O)N[C@H](C(=O)N[C@@H](CCCCN)C(=O)N[C@@H](CCCCN)C(=O)N[C@@H](CC(C)C)C(=O)N[C@@H](Cc1ccccc1)C(=O)N[C@@H](CCCCN)C(=O)N[C@@H](CCCCN)C(=O)N[C@@H](CCCCN)C(=O)NCC(=O)NCC(N)=O)C(C)C", "assay": "broth microdilution", "test system": "ATCC 25923", "setting": "24 h, 37 °C", "quantity": "MIC50", "result": "78 µM"}
{"Molecule": "CCCCCCOc1c(OC)cc(NC(C)CCCNC(=O)C(N)Cc2ccccc2)c2nc(C(C)(C)C)ccc12 (stereo not drawn)", "assay": "microbial growth", "test system": "ATCC33591 MRSA", "setting": "drug-resistant strain", "quantity": "IC50", "result": "9.71 µg/mL"}
{"Molecule": "CC(C)C[C@H](NC(=O)[C@H](CCCCN)NC(=O)[C@H](CCCCN)NC(=O)[C@H](CC(C)C)NC(=O)[C@H](CCCCN)NC(=O)[C@@H](N)CCCNC(=N)N)C(=O)N[C@@H](Cc1c[nH]c2ccccc12)C(=O)N[C@@H](CCCNC(=N)N)C(=O)N[C@@H](CCCCN)C(=O)N[C@@H](Cc1ccccc1)C(=O)N[C@@H](CCCNC(=N)N)C(=O)O", "assay": "bacterial killing, colony count", "test system": "ATCC 12600", "setting": "1 h, pH 7, 37 °C", "quantity": "EC50", "result": "0.4 µg/mL"}
{"Molecule": "CO/N=C(\\C(=O)N[C@@H]1C(=O)N2C(C(=O)O)=C(CSc3nc(=O)c(=O)[nH]n3C)CS[C@H]12)c1csc(N)n1", "assay": "checkerboard titration", "test system": "ATCC 38591 oxacillin-resistant", "setting": "added: ranalexin", "quantity": "FIC index", "result": 1}
{"Molecule": "CCCCCOc1c(OC)cc(NC(C)CCCNC(=O)C(N)CCCN)c2nc(C(C)(C)C)ccc12 (stereo not drawn)", "test system": "MRSA ATCC 33591", "quantity": "MBC", "result": "> 20 µg/mL"}
{"Molecule": "CC[C@H](C)[C@H](N)C(=O)N[C@@H](CC(C)C)C(=O)N1CCC[C@H]1C(=O)N[C@@H](Cc1c[nH]c2ccccc12)C(=O)N[C@@H](CCCCN)C(=O)N[C@@H](Cc1c[nH]c2ccccc12)C(=O)N1CCC[C@H]1C(=O)N[C@@H](Cc1c[nH]c2ccccc12)C(=O)N[C@@H](Cc1c[nH]c2ccccc12)C(=O)N1CCC[C@H]1C(=O)N[C@@H](Cc1c[nH]c2ccccc12)C(=O)N[C@@H](CCCNC(=N)N)C(=O)N[C@@H](CCCNC(=N)N)C(N)=O", "assay": "broth microdilution", "test system": "methicillin-susceptible clinical isolates, Mueller-Hinton broth", "setting": "18 h, 35 °C", "quantity": "MIC50", "result": "4 µg/mL"}
{"Molecule": "CC[C@H](C)[C@H](NC(=O)[C@H](CCCCN)NC(=O)[C@H](CCC(=O)O)NC(=O)[C@H](CCCCN)NC(=O)[C@H](CO)NC(=O)[C@H](CCCCN)NC(=O)[C@H](CCCNC(=N)N)NC(=O)[C@H](Cc1ccccc1)NC(=O)[C@H](Cc1ccccc1)NC(=O)[C@H](CC(=O)O)NC(=O)CNC(=O)[C@H](CC(C)C)NC(=O)[C@@H](N)CC(C)C)C(=O)NCC(=O)N[C@@H](CCCCN)C(=O)N[C@@H](CCC(=O)O)C(=O)N[C@@H](Cc1ccccc1)C(=O)N[C@@H](CCCCN)C(=O)N[C@@H](CCCNC(=N)N)C(=O)N[C@H](C(=O)N[C@H](C(=O)N[C@@H](CCC(N)=O)C(=O)N[C@@H](CCCNC(=N)N)C(=O)N[C@H](C(=O)N[C@@H](CCCCN)C(=O)N[C@@H](CC(=O)O)C(=O)N[C@@H](Cc1ccccc1)C(=O)N[C@@H](CC(C)C)C(=O)N[C@@H](CCCNC(=N)N)C(=O)N[C@@H](CC(N)=O)C(=O)N[C@@H](CC(C)C)C(=O)N[C@H](C(=O)N1CCC[C@H]1C(=O)N[C@@H](CCCNC(=N)N)C(=O)N[C@H](C(=O)N[C@@H](CCC(=O)O)C(=O)N[C@@H](CO)C(=O)O)[C@@H](C)O)C(C)C)[C@@H](C)CC)C(C)C)[C@@H](C)CC", "test system": "JE2 SAUSA300_1097 pyrF transposon mutant", "setting": "12.5% TSB", "scale": "reference: wild type over mutant", "quantity": "MIC ratio", "result": "2 fold"}
{"Molecule": "eremomycin pyrrolidide", "test system": "10, female SHK mice, sepsis", "setting": "intravenous, 30 min after infection, 10 days observation", "quantity": "dose for 100% survival", "result": "2.5 mg/kg"}
{"note": "For quick reference, copied from above:"}
{"Molecule": "CCCCCOc1c(OC)cc(NC(C)CCCNC(=O)C(N)CCCN)c2nc(C(C)(C)C)ccc12 (stereo not drawn)", "test system": "MRSA ATCC 33591", "quantity": "MBC", "result": "> 20 µg/mL"}
